Experimental data gathered from unrelated publications.
Compare with care: the assays were run in different laboratories.
NEK5: Serine/threonine-protein kinase Nek5 (NEK5, Homo sapiens, UniProt Q6P3R8)
TDP1: Tyrosyl-DNA phosphodiesterase 1 (TDP1, Homo sapiens, UniProt Q9NUW8)
UniProt Q9NUW8, sequence (whole entry, looked up): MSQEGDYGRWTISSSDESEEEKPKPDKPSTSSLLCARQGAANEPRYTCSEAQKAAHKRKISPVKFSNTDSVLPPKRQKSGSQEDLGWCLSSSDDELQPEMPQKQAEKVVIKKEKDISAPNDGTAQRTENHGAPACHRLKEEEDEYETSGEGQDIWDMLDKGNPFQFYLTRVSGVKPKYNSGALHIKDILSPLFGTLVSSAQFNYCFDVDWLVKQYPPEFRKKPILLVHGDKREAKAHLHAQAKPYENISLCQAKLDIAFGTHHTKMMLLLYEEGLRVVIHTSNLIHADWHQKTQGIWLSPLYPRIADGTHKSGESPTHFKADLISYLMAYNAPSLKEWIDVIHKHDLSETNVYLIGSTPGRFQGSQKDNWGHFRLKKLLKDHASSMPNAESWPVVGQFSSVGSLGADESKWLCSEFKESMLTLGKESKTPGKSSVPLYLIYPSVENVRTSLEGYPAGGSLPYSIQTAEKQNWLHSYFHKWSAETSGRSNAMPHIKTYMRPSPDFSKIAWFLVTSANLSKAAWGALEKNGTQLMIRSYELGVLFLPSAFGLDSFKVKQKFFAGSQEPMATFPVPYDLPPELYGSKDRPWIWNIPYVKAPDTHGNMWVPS

For `COc1cc(Nc2nc(C)cc(-c3cnn4nc(OC)ccc34)n2)cc(C(F)(F)F)c1`, the remaining activity was 96% (NEK5; inhibitor; 1 µM; baseline: control).
With `C=CC(=O)N1CCc2ccc(-n3c(=O)ccc4cnc5ccc(-c6cnn(C)c6)cc5c43)cc21` the remaining binding was 100% (NEK5; KINOMEscan; 1 µM; baseline: DMSO control).
Under “activity vs control”, `O=C(Cc1ccc(OCc2ccccc2)cc1)NC1(C(=O)O)CCN(C(=O)c2ccc(-c3cccc(Cl)c3)cc2)CC1` is recorded as 103% (NEK5; enzyme activity, inhibitor; 10 µM).
The remaining binding of `CNC1C[S+]2CC[S+]3CC[S+](C1)[Ru-4]321([N]=C=S)[n]2c3ccc(OC)cc3c3c4c(c5cc(F)c[n+]1c5c32)C(=O)NC4=O` (centres unmarked) is reported as 81% (NEK5; KinomeScan; 0.1 µM; baseline: untreated).
With `COc1cc(Nc2nccc(-c3cnn4nc(OC)ccc34)n2)cc(C(F)(F)F)c1` the remaining binding was 57% (NEK5; binding, competition with immobilised ligand; 1 µM).
For `C=CC(=O)N1CCCC(n2c(=O)c3ncccc3n(Cc3ccc(Oc4ccccc4)cc3)c2=O)C1` (centres unmarked), the remaining binding was 89% (NEK5; cell-free assay, competition with immobilised ligand; 1 µM).
With `Cn1ccc2ccc(C=NOCc3ccc4nc(-c5ccccc5)c(Nc5ccc(C(=O)O)cc5)n4c3)cc21` the inhibition was 20.6% (TDP1; enzyme activity, inhibitor; 100 µM, unpurified compound).
The remaining binding of `CNC(=O)C1CCN(c2cc(C)c(F)cc2NC(=O)c2ccc(-c3cc(O)ccc3C)c(C)c2)CC1` is reported as 100% (NEK5; binding, competition with immobilised ligand; 1 µM).
`CCN1CCN(Cc2ccc(C(=O)Nc3ccc(C)c(NCc4cnc5[nH]ccc5c4OC)c3)cc2C(F)(F)F)CC1` gave a remaining binding of 48% (NEK5; binding, competition with immobilised ligand; 1 µM).
`Cc1cnc2nc1Nc1cccc(c1)COC/C=C/COCc1cc(ccc1OCCN1CCOCC1)N2` has a remaining binding of 85% (NEK5; binding; 0.1 µM).
`CCn1cc(C(=O)O)c(=O)c2c(N)c(F)c(NC3CCCCC3)cc21` gave an inhibition of 37.2% (NEK5; kinase activity; 0.1 µM, with: ATP at Km).
For `Cn1c(N)c(C=NOCc2ccc(-c3nc4cc(-c5ccccc5)ccn4c3Nc3ccc(C(=O)O)cc3)cc2)c(=O)n(C)c1=O`, the inhibition was 84% (TDP1; enzyme activity, inhibitor; 100 µM, unpurified compound).
For `Nc1ncc(-c2cc(-c3cnn(CC(F)(F)F)c3)ncc2F)nc1C(=O)NC1CNCC(F)C1` (centres unmarked), the remaining activity was 74.4% (NEK5; enzyme activity; 1 µM; baseline: DMSO control).
The remaining binding of `Cc1ccc(-c2c(/C=C(\C#N)C(=O)NC(C)C)n(CCCO)c3ncnc(N)c23)cc1` is reported as 100% (NEK5; cell-free assay, competition with immobilised ligand; 1 µM).
With `CC(C)=CC1OC(C)(C)C2C=C3C(=O)C(Cl)=CC(O)C3C3C(O)C4OC4C(=O)C132` (centres unmarked) the remaining binding was 75% (NEK5; cell-free assay, competition with immobilised ligand; 10 µM).
The remaining binding of `Nc1ncc2c(n1)-c1c([nH]c3ccc(C4=CCOCC4)cc13)CCC2` is reported as 100% (NEK5; binding, competition with immobilised ligand; 1 µM).
With `COc1c(Cl)cccc1Nc1c(-c2ccncc2C#C[C@@]2(C)CCCN2C(=O)/C=C/CN(C)C)[nH]c2c1C(=O)NCC2` the remaining binding was 95% (NEK5; binding, competition with immobilised ligand; 3 µM).

Some of these lines once more:
With `Cn1ccc2ccc(C=NOCc3ccc4nc(-c5ccccc5)c(Nc5ccc(C(=O)O)cc5)n4c3)cc21` the inhibition was 20.6% (TDP1; enzyme activity, inhibitor; 100 µM, unpurified compound).
